Published values gathered from unrelated publications.
Protocols differ between the studies behind these lines. ± gives the spread as reported. Values after ≈ are worked out from the molar mass of the structure shown.

CSCC[C@H](NC(=O)CNC(=O)[C@H](CC(=O)O)NC(=O)[C@@H](NC(=O)[C@@H](NC(=O)[C@@H](NC(=O)CNC(=O)[C@H](CCC(N)=O)NC(=O)[C@H](CCSC)NC(=O)[C@H](CC(=O)O)NC(=O)[C@H](C)NC(=O)[C@H](C)NC(=O)[C@@H](NC(=O)[C@H](CO)NC(=O)[C@@H](N)CC(C)C)[C@@H](C)O)C(C)C)C(C)C)[C@@H](C)O)C(=O)N[C@@H](C)C(=O)N[C@@H](CO)C(=O)NCC(=O)N[C@@H](CC(C)C)C(=O)N[C@@H](CC(=O)O)C(=O)N[C@@H](CCCCN)C(=O)N[C@@H](CC(=O)O)C(=O)N[C@@H](Cc1ccc(O)cc1)C(=O)N[C@@H](CC(C)C)C(=O)N[C@@H](CCCCN)C(=O)N1CCC[C@H]1C(=O)N[C@@H](CC(=O)O)C(=O)N[C@@H](CC(=O)O)C(=O)O  MTD, cumulative dose (p53-positive advanced solid tumour patients; IV, dose levels 2 to 5): > 140 mg/kg
CC[C@H](C)[C@H](NC(=O)[C@H](CO)NC(=O)[C@H](CCC(N)=O)NC(=O)[C@H](CCCNC(=N)N)NC(=O)[C@H](CC(C)C)NC(=O)[C@H](CO)NC(=O)[C@H](CC(C)C)NC(=O)[C@@H](N)CCSC)C(=O)N[C@@H](CCCNC(=N)N)C(=O)N[C@@H](Cc1ccccc1)C(=O)N[C@@H](Cc1ccccc1)C(=O)N[C@@H](CCCCN)C(N)=O  thermodynamic solubility (water; 0.167 min): 9.07 mM (≈ 13.8 mg/mL)
CSCC[C@@H]1NC(=O)[C@@H]2CSSC[C@H](NC(=O)[C@H](CO)NC(=O)[C@H](C)N)C(=O)N[C@@H](CCCNC(=N)N)C(=O)N[C@@H]([C@@H](C)O)C(=O)N3CCC[C@H]3C(=O)N[C@@H](CCCCN)C(=O)N[C@@H](CC(=O)O)C(=O)N[C@H]3CSSC[C@H](NC(=O)[C@H](CCCCN)NC(=O)[C@H](CCCNC(=N)N)NC(=O)[C@H](CC(N)=O)NC1=O)C(=O)N[C@@H](CCCCN)C(=O)N[C@H]1CSSC[C@H](NC(=O)[C@@H]4CCCN4C(=O)[C@H](CC(=O)O)NC(=O)[C@H](C)NC3=O)C(=O)N[C@@H](C)C(=O)N[C@@H](CCCCN)C(=O)N[C@@H](CCC(=O)O)C(=O)N[C@@H]([C@@H](C)O)C(=O)NCC(=O)N[C@@H](CSSC[C@@H](C(N)=O)NC(=O)[C@H](CCCNC(=N)N)NC(=O)[C@H](CC(N)=O)NC1=O)C(=O)N1CCC[C@H]1C(=O)N[C@@H](Cc1ccc(O)cc1)C(=O)NCC(=O)N[C@@H](CCCCN)C(=O)N2  CO2 (DA rat pristane-induced arthritis, serum; subcutaneous, 0.1 mg/kg single dose at onset, 21 days): 19 mmol/L
O=c1oc2cc(O)ccc2c2ccccc12  pKa1 (potentiometric titration; water, extrapolated from methanol/water; 25 °C): 8.53
OC1(C(F)(F)F)CCN(c2nc(Nc3ccnc(C(F)(F)F)c3)nc(-c3cccc(C(F)(F)F)n3)n2)C1 (stereo not drawn)  NOAEL (central nervous system; Sprague-Dawley rat, both sexes; oral): 50 mg/kg
Cc1cc(-c2ccc3ccccc3c2)nnc1NCCN1CCN(C)CC1  AUC(0-inf) (rat; oral, dose not given): 1480 ng·h/mL
CC1(C)OB(c2ccc(COC(=O)N(Cc3cccc(CN4CCCCC4)c3)[c-]3cccc3)cc2)OC1(C)C.[Fe+2].c1cc[cH-]c1  E1/2 (cyclic and differential pulse voltammetry; acetonitrile; 23 °C; relative to: ferrocene/ferrocenium): -40 mV
COC(=O)C[C@](O)(CCCC(C)(C)OC(C)=O)C(=O)O[C@@H]1C(OC)=C[C@]23CCCN2CCc2cc4c(cc2[C@H]13)OCO4  tissue concentration (CD1 mouse, spleen; subcutaneous, 1 mg/kg, 0.5 h): 984 ng/mL
CCNc1cc2[o+]c3cc(NCC)c(C)cc3c(-c3ccccc3C(=O)OCCOCC[18F])c2cc1C  tissue uptake ratio (rat; 60 min; relative to: heart over bone): 4.6
O=c1c2cc(Cl)ccc2sc2c(NCc3ccccc3)nc3ccccc3c12  body weight gain (BALB/c nude mice; i.p., 20 mg/kg): 3.68 ± 0.34%
C[C@@H]1CC[C@H]2[C@@H](C)CO[C@@H]3O[C@@]4(C)CC[C@@H]1[C@]32OO4  half-life (rat Sprague-Dawley male, plasma; intravenous, 5 mg/kg): 27 ± 3 min
CC(=O)N1CCC(NC(=O)C(N)Cc2c(C)cc(O)cc2C)c2cc(CN3CCc4ccccc4C3)ccc21 (stereo not drawn)  compound remaining (chemical stability; mouse, plasma; 30 min): 95.3%
CC[C@H](C)C(=O)N1CCC(NC(=O)Nc2ccc(OC(F)(F)F)c(F)c2)CC1  subjects with trichomoniasis TEAE (healthy volunteers; oral, 24 mg single dose): 0%
CC[C@H](C)[C@@H]1NC(=O)[C@H](CCCCN)NC(=O)[C@H](CCCCN)NC(=O)[C@H](Cc2ccc(O)cc2)NC(=O)[C@H](CC(C)C)NC(=O)[C@@H]2CCCN2C(=O)[C@H](C)NC(=O)CNC(=O)CNC(=O)[C@H](CO)NC(=O)CNC(=O)CNC(=O)[C@H](CO)NC(=O)[C@H](CCC(=O)O)NC(=O)[C@H](CC(C)C)NC(=O)[C@H](CC(C)C)NC(=O)[C@H](CCCNC(=N)N)NC(=O)[C@H](CCCCN)NC(=O)[C@H]([C@@H](C)CC)NC(=O)[C@H]([C@@H](C)CC)NC(=O)[C@H](CCCCN)NC(=O)[C@H](CCCCN)NC(=O)[C@H](Cc2ccc(O)cc2)NC(=O)[C@H](CC(C)C)NC(=O)[C@@H]2CCCN2C(=O)[C@H](C)NC(=O)CNC(=O)CNC(=O)[C@H](CO)NC(=O)CNC(=O)CNC(=O)[C@H](CO)NC(=O)[C@H](CCC(=O)O)NC(=O)[C@H](CC(C)C)NC(=O)[C@H](CC(C)C)NC(=O)[C@H](CCCNC(=N)N)NC(=O)[C@H](CCCCN)NC(=O)[C@H]([C@@H](C)CC)NC1=O  HC10 (hemolysis; uninfected human erythrocytes; 1 h): 18 µM
[2H]C([2H])([2H])C([2H])([2H])C([2H])([2H])OC(C(=O)OC1CCNCC1)(c1ccccc1)c1ccccc1  adverse drug reactions (measured: oropharyngeal pain; healthy Japanese male; oral, 15 mg once daily, 16 days): 0%
CC(C)[C@H](NC(=O)CNC(=O)[C@H](CCC(N)=O)NC(=O)[C@H](C)N)C(=O)O  subjects with Possibly related AE (healthy male volunteers; intravenous, 45 mg/kg/h, 2 h, with: LPS 2 ng/kg): 0%
CC[C@@H]1C[C@]1(NC(=O)[C@@H]1C[C@@]2(CN1C(=O)[C@@H](NC(=O)[C@@H](NC(=O)[C@@H]1CCCCN1C(C)C)C1CCCCC1)C(C)(C)C)C(C)(C)C21CCC1)C(=O)NS(=O)(=O)N1CCCC1  subjects with adverse events (human; oral, 1000 mg single dose): 66.7%
Cc1cc(Nc2nc(C[C@@]3(C(=O)O)CCN(Cc4cccc(Cl)c4F)[C@H](C)C3)cc(C)c2F)n[nH]1  Vd (Sprague-Dawley rat, plasma; intravenous, 0.5 mg/kg, single dose): 0.278 L/kg
CN(C)C(CNC(=O)Nc1cc(C(F)(F)F)ccc1N1CCOCC1)c1ccncc1 (stereo not drawn)  serum calcium (mouse, serum; intraperitoneal, 360 mg/kg single dose): 9.1 mg/dL
N=C(N)NCc1ccc(C(=O)NCCCC[C@H](NC(=O)N[C@@H](CCC(=O)O)C(=O)O)C(=O)O)cc1[211At]  tissue uptake (SCID mouse, PC-3 xenografts, stomach; 2 h): 2.55 ± 0.69 %ID/g
CCOP(=O)(OCC)OCCCCOC(=O)CC1=C(C)C(=Cc2ccc([S+](C)[O-])cc2)c2ccc(F)cc21 (stereo not drawn)  drug level (HPLC; mice, lung; inhalation, dose not given, 24 h, 8 min exposure): not detected
CC[C@H](C)[C@H](NC(=O)[C@H](CC(=O)O)NC(=O)[C@H](CO)NC(=O)[C@H](CCC(N)=O)NC(=O)[C@H](C)NC(=O)[C@H](CC(=O)O)NC(=O)[C@H](CCC(=O)O)NC(=O)[C@H](Cc1c[nH]cn1)NC(=O)[C@H](Cc1ccc(O)cc1)NC(=O)[C@H](C)NC(=O)[C@H](CC(=O)O)NC(=O)[C@H](CCC(=O)O)NC(=O)[C@H](Cc1c[nH]cn1)NC(=O)[C@H](Cc1ccc(O)cc1)NC(=O)[C@H](C)NC(=O)[C@H](CC(=O)O)NC(=O)[C@H](CCC(=O)O)NC(=O)[C@H](Cc1c[nH]cn1)NC(=O)[C@H](Cc1ccc(O)cc1)NC(=O)[C@H](C)NC(=O)[C@H](CC(=O)O)NC(=O)[C@H](CCC(=O)O)NC(=O)[C@H](Cc1c[nH]cn1)NC(=O)[C@H](Cc1ccc(O)cc1)NC(=O)[C@H](C)NC(=O)[C@H](CC(=O)O)NC(=O)[C@H](CCC(=O)O)NC(=O)[C@H](Cc1c[nH]cn1)NC(=O)[C@@H](N)Cc1ccc(O)cc1)C(=O)N[C@H](C(=O)N[C@@H](C)C(=O)N[C@@H](Cc1c[nH]cn1)C(=O)N[C@@H](CC(C)C)C(=O)N[C@@H](CC(C)C)C(=O)O)C(C)C  serum creatinine (normal mouse; dose not given): 0.51 ± 0.05 mg/dL
CN[C@@H]1[C@H](O)[C@H](NC)[C@H]2O[C@]3(O)[C@H](O[C@@H]2[C@H]1O)O[C@H](C)C[C@@]3(O)CNCCc1ccc(F)cc1  maximum tolerated dose (female BALB/c mice; subcutaneous, 3 days, twice daily): 50 mg/kg
CCN(CC)CCOc1ccc(-c2nnn(Cc3ccc(OC)cc3)c2N)cc1  stability (CD-1 mice, plasma; 120 min): stable

Excerpt of the above:
[2H]C([2H])([2H])C([2H])([2H])C([2H])([2H])OC(C(=O)OC1CCNCC1)(c1ccccc1)c1ccccc1  adverse drug reactions (measured: oropharyngeal pain; healthy Japanese male; oral, 15 mg once daily, 16 days): 0%
CC[C@H](C)[C@@H]1NC(=O)[C@H](CCCCN)NC(=O)[C@H](CCCCN)NC(=O)[C@H](Cc2ccc(O)cc2)NC(=O)[C@H](CC(C)C)NC(=O)[C@@H]2CCCN2C(=O)[C@H](C)NC(=O)CNC(=O)CNC(=O)[C@H](CO)NC(=O)CNC(=O)CNC(=O)[C@H](CO)NC(=O)[C@H](CCC(=O)O)NC(=O)[C@H](CC(C)C)NC(=O)[C@H](CC(C)C)NC(=O)[C@H](CCCNC(=N)N)NC(=O)[C@H](CCCCN)NC(=O)[C@H]([C@@H](C)CC)NC(=O)[C@H]([C@@H](C)CC)NC(=O)[C@H](CCCCN)NC(=O)[C@H](CCCCN)NC(=O)[C@H](Cc2ccc(O)cc2)NC(=O)[C@H](CC(C)C)NC(=O)[C@@H]2CCCN2C(=O)[C@H](C)NC(=O)CNC(=O)CNC(=O)[C@H](CO)NC(=O)CNC(=O)CNC(=O)[C@H](CO)NC(=O)[C@H](CCC(=O)O)NC(=O)[C@H](CC(C)C)NC(=O)[C@H](CC(C)C)NC(=O)[C@H](CCCNC(=N)N)NC(=O)[C@H](CCCCN)NC(=O)[C@H]([C@@H](C)CC)NC1=O  HC10 (hemolysis; uninfected human erythrocytes; 1 h): 18 µM
CC[C@H](C)[C@H](NC(=O)[C@H](CC(=O)O)NC(=O)[C@H](CO)NC(=O)[C@H](CCC(N)=O)NC(=O)[C@H](C)NC(=O)[C@H](CC(=O)O)NC(=O)[C@H](CCC(=O)O)NC(=O)[C@H](Cc1c[nH]cn1)NC(=O)[C@H](Cc1ccc(O)cc1)NC(=O)[C@H](C)NC(=O)[C@H](CC(=O)O)NC(=O)[C@H](CCC(=O)O)NC(=O)[C@H](Cc1c[nH]cn1)NC(=O)[C@H](Cc1ccc(O)cc1)NC(=O)[C@H](C)NC(=O)[C@H](CC(=O)O)NC(=O)[C@H](CCC(=O)O)NC(=O)[C@H](Cc1c[nH]cn1)NC(=O)[C@H](Cc1ccc(O)cc1)NC(=O)[C@H](C)NC(=O)[C@H](CC(=O)O)NC(=O)[C@H](CCC(=O)O)NC(=O)[C@H](Cc1c[nH]cn1)NC(=O)[C@H](Cc1ccc(O)cc1)NC(=O)[C@H](C)NC(=O)[C@H](CC(=O)O)NC(=O)[C@H](CCC(=O)O)NC(=O)[C@H](Cc1c[nH]cn1)NC(=O)[C@@H](N)Cc1ccc(O)cc1)C(=O)N[C@H](C(=O)N[C@@H](C)C(=O)N[C@@H](Cc1c[nH]cn1)C(=O)N[C@@H](CC(C)C)C(=O)N[C@@H](CC(C)C)C(=O)O)C(C)C  serum creatinine (normal mouse; dose not given): 0.51 ± 0.05 mg/dL
